Published values from different studies.
Several values in a cell are separate wells, animals, samples, runs or records. Numbers after ± are the reported error. In brackets after ≈: the same amount, converted by molar mass.
Histone acetyltransferase RTT109 with Vps75: Histone acetyltransferase RTT109, with Vps75 (Saccharomyces cerevisiae, UniProt Q07794)
Chain of UniProt Q07794 (whole entry, looked up): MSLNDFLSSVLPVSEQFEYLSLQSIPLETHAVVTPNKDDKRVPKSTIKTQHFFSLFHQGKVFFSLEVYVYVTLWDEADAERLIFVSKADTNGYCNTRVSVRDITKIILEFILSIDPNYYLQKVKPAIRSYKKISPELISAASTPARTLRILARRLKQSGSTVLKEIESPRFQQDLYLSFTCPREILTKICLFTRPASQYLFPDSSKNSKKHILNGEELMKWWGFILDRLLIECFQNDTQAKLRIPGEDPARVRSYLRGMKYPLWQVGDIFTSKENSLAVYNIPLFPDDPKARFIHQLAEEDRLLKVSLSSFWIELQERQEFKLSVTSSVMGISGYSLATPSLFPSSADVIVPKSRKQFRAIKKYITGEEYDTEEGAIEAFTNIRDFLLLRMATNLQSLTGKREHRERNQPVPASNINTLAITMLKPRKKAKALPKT
UCHL1: Ubiquitin carboxyl-terminal hydrolase isozyme L1 (UCHL1, Homo sapiens, UniProt P09936)
Chain of UniProt P09936 (whole entry, looked up): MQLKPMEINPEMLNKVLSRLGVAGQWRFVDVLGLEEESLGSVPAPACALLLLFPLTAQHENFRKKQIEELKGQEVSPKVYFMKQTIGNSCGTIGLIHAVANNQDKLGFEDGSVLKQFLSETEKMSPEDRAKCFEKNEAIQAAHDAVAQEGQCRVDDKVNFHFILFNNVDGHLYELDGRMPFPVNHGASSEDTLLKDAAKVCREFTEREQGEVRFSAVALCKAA

| Structure (SMILES) | tested on | assay | system | setting | how to read | measurement | result |
| --- | --- | --- | --- | --- | --- | --- | --- |
| Fc1cccc(N/N=C/c2ccc(-c3cccc(/C=N/Nc4cccc(F)c4)c3)cc2)c1 | Nakaseomyces glabratus |  | ATCC 2001 |  | reference: mammalian CC50 over MIC | selectivity index | < 0.4 |
| CN(C)CCNc1c2c(c(C#N)c3nc4ccccc4n13)CCCC2 | Trypanosoma cruzi | reporter translation, Renilla luciferase mRNA translation | cell-free extract | 40 µM | reference: DMSO | inhibition | -11.8% |
| COc1cc(C#CC(=O)c2ccccc2Cl)ccc1O | Pseudomonas aeruginosa | static biofilm | PA14 | 10 µM, 24 h | reference: DMSO | biofilm formation | 76% |
| O=S1(=O)C=C(N2CCOCC2)c2ccccc21 | Histone acetyltransferase RTT109 with Vps75 | enzyme activity, inhibitor, HTS, CPM-based, dose response |  |  |  | IC50 | > 125 µM |
| CC(=O)[C@]1(O)Cc2c(O)c3c(c(O)c2[C@@H](O[C@H]2C[C@H](N)[C@H](O)[C@H](C)O2)C1)C(=O)c1ccccc1C3=O | Toxoplasma gondii | parasite growth, luciferase reporter | HFF, tachyzoite | 72 h |  | EC90 | 0.839 µM |
| Cn1cc(-c2ccc(-c3cncc(Cl)c3N3CCC4(CCNC4=O)CC3)cc2)cn1 | COLO 205 | microarray, refers to: FAS |  | concentration not given, 6 h, gene set FasR(CD95) | reference: untreated cells | fold change in expression | 4.15 |
| Nc1nc(-c2ccccc2)nc2[nH]nc(Nc3ccc(C(F)(F)F)cc3)c12 | coxsackievirus B3 |  | 31-1-93, NMRI mice, CVB3 chronic myocarditis | oral, 100 mg/kg twice daily, day 13, dosed days 1 to 7, score scale 0 to 7 | direction not given | clinical score | 0.11 |
| COc1cc(C#C[C@H](O)CC(C)C)ccc1O | Pseudomonas aeruginosa | static biofilm | PA14 | 10 µM, 24 h | reference: DMSO | biofilm formation | 72% |
| COc1ccc(-c2noc(Nc3ccc(Cl)cc3)n2)cc1 | Histone acetyltransferase RTT109 with Vps75 | enzyme activity, inhibitor, HTS, CPM-based, dose response |  |  |  | IC50 | > 125 µM |
| Cc1ccc(S(=O)(=O)/C=C/C#N)cc1 | Toxoplasma gondii | parasite growth | HFF, bradyzoite, alkaline-induced |  |  | EC90 | 6.17 µM |
| COc1cc(C#CC(=O)c2ccc(Cl)cc2)ccc1O | Pseudomonas aeruginosa | static biofilm | PA14 | 10 µM, 24 h | reference: DMSO | biofilm formation | 65% |
| CCNCc1nc2c(N)nc3ccccc3c2n1CC(C)(C)O | Toxoplasma gondii | parasite growth | HFF, bradyzoite, glutamine-induced |  |  | EC90 | 30 µM |
| COc1cc(C#CC(=O)CC(C)C)ccc1O | Pseudomonas aeruginosa | RT-qPCR, refers to: lasB | biofilm cells | 10 µM, 24 h | reference: untreated | mRNA level | 70% |
| OC(Cn1cncn1)(Cn1cncn1)c1ccc(F)cc1F | Cryptococcus neoformans |  | 117, RPMI 1640 | 24 h, 35 °C |  | MIC | 50 µM (≈ 15.3 µg/mL) |
| OC(COc1ccc2cc(Br)ccc2c1)Cn1ccnc1 (stereo not drawn) | Trypanosoma cruzi | reporter translation, Renilla luciferase mRNA translation | cell-free extract | 40 µM | reference: DMSO | inhibition | -6.4% |
| COC(=O)C1=C(C)NC(C)=C(C(=O)OC(C)(C)CN(C)CCC(c2ccccc2)c2ccccc2)C1c1cccc([N+](=O)[O-])c1 (stereo not drawn) | Toxoplasma gondii | parasite growth, luciferase reporter | HFF, tachyzoite | 72 h |  | EC90 | 33.1 µM |
| Cn1cnc([N+](=O)[O-])c1Sc1ccccc1C(=O)NCCn1ccc(=O)c2cc3c(cc21)OCO3 | HIV-1 | viral replication | human PBMC, 92RW009 |  |  | EC50 | 19.4 ± 14.9 µM |

| Structure (SMILES) | tested on | assay | system | setting | how to read | measurement | result |
| --- | --- | --- | --- | --- | --- | --- | --- |
| O=C(C#Cc1ccc(F)c(F)c1)c1ccccc1Cl | Pseudomonas aeruginosa | RT-qPCR, refers to: lasB | biofilm cells | 10 µM, 24 h | reference: untreated | mRNA level | 28% |
| C[n+]1cc2c3c(ccc2c2ccc4cc5c(cc4c21)OCO5)OCO3 | Toxoplasma gondii | parasite growth, luciferase reporter | HFF, tachyzoite | 72 h |  | EC90 | 1.9 µM |
| Cc1n[nH]c(C)c1C=C(C#N)C(=O)Nc1cc(Cl)cc(Cl)c1 | UCHL1 | covalent, intact protein LC-MS |  | 12.5 µM |  | labelling | 19% |
| OC[C@H]1O[C@@H](O[C@@H]2[C@@H](O)[C@H](O[C@@H]3[C@@H](O)[C@H](O[C@H]4[C@H](O)[C@@H](CO)OC(O)[C@@H]4O)O[C@H](CO)[C@H]3O)O[C@H](CO)[C@H]2O)[C@H](O)[C@@H](O)[C@@H]1O (stereo partly drawn) | Bacteroides uniformis | binding, ITC |  | pH 7.0, 25 °C, middle domain |  | ΔH | -25.5 kcal/mol |
| C[C@@H](O)[C@H]1C(=O)N2C(C(=O)O)=C(SCCN=CN)C[C@H]12 | Pseudomonas aeruginosa |  | BAA-2797, mouse, peritonitis model, liver | intraperitoneal, 10 mg/kg single dose |  | bacterial load | 7.88 log10 CFU and 7.78 log10 CFU and 8.2 log10 CFU and 8.45 log10 CFU and 7.9 log10 CFU |
| Nc1c(C(=O)CCl)c(=O)[nH]c(=O)n1Cc1ccccc1 | UCHL1 | covalent, intact protein LC-MS |  | 12.5 µM |  | labelling | 9.43% |
| COc1cc(C#CC(=O)c2ccccc2C)ccc1O | Pseudomonas aeruginosa | static biofilm | PA14 | 10 µM, 24 h, static | reference: DMSO | biofilm formation | 75% |
| Clc1ccc(C(c2ccc(Cl)cc2)n2cc[n+](CC(OCc3ccc(Cl)cc3Cl)c3ccc(Cl)cc3Cl)c2)cc1 (stereo not drawn) | Toxoplasma gondii | parasite growth | HFF, bradyzoite, alkaline-induced |  |  | EC90 | 8.79 µM |
| OC[C@H]1O[C@@H](O[C@@H]2[C@@H](O)[C@H](O[C@@H]3[C@@H](O)[C@H](O[C@@H]4[C@@H](O)[C@H](O[C@@H]5[C@@H](O)[C@H](O[C@H]6[C@H](O)[C@@H](CO)OC(O)[C@@H]6O)O[C@H](CO)[C@H]5O)O[C@H](CO)[C@H]4O)O[C@H](CO)[C@H]3O)O[C@H](CO)[C@H]2O)[C@H](O)[C@@H](O)[C@@H]1O (stereo partly drawn) | Bacteroides uniformis | binding, ITC |  | pH 7.0, 25 °C, distal domain |  | ΔG | -26.3 kcal/mol |
| CC(C)n1ncc2c(C(=O)NCC3(C)CNC3)cc(C3CC3)nc21 | Enterovirus D68 | cytopathic effect | RD, US/MO/14-18947 | 1500 nM |  | cell protection | 105% and 106% and 107% |
| COc1ccc(C(=O)C#Cc2ccc(O)c(OC)c2)cc1 | Pseudomonas aeruginosa | static biofilm | PA14 | 10 µM, 24 h | reference: DMSO | biofilm formation | 73% |
| OC[C@H]1O[C@@H](O[C@@H]2[C@@H](O)[C@H](O[C@@H]3[C@@H](O)[C@H](O[C@@H]4[C@@H](O)[C@H](O[C@H]5[C@H](O)[C@@H](CO)OC(O)[C@@H]5O)O[C@H](CO)[C@H]4O)O[C@H](CO)[C@H]3O)O[C@H](CO)[C@H]2O)[C@H](O)[C@@H](O)[C@@H]1O (stereo partly drawn) | Bacteroides uniformis | binding, ITC |  | pH 7.0, 25 °C, distal domain |  | ΔH | -46.9 kcal/mol |
| O=C(/C=C/c1ccc(O)c(O)c1)OCCc1ccccc1 | Toxoplasma gondii | parasite growth | HFF, bradyzoite, glutamine-induced |  |  | EC90 | 9.13 µM |
| N=C(N)c1ccc(OCc2cc(COc3ccc(C(=N)N)cc3)cc(-c3ccccc3)c2)cc1 | Escherichia coli | checkerboard | mcr-3 polymyxin-resistant | unit not given, added: rifampicin | lower = stronger synergy | FICI | 0.031 |
| Oc1ncnc2[nH]ncc12 | Toxoplasma gondii | parasite growth, luciferase reporter | HFF, tachyzoite | 72 h |  | EC90 | 30 µM |
| Cc1ccc(C(=O)C#Cc2ccc(F)c(F)c2)cc1 | Pseudomonas aeruginosa | static biofilm | PA14 | 10 µM, 24 h, static | reference: DMSO | biofilm formation | 53% |

For quick reference, copied from above:
| Structure (SMILES) | tested on | assay | system | setting | how to read | measurement | result |
| --- | --- | --- | --- | --- | --- | --- | --- |
| Cc1ccc(C(=O)C#Cc2ccc(F)c(F)c2)cc1 | Pseudomonas aeruginosa | static biofilm | PA14 | 10 µM, 24 h, static | reference: DMSO | biofilm formation | 53% |
| Nc1c(C(=O)CCl)c(=O)[nH]c(=O)n1Cc1ccccc1 | UCHL1 | covalent, intact protein LC-MS |  | 12.5 µM |  | labelling | 9.43% |
